Experimental data of several laboratories.
Compare with care: the assays were run in different laboratories.
CSK: Tyrosine-protein kinase CSK (CSK, Homo sapiens, UniProt P41240)
UniProt P41240, sequence (whole entry, looked up): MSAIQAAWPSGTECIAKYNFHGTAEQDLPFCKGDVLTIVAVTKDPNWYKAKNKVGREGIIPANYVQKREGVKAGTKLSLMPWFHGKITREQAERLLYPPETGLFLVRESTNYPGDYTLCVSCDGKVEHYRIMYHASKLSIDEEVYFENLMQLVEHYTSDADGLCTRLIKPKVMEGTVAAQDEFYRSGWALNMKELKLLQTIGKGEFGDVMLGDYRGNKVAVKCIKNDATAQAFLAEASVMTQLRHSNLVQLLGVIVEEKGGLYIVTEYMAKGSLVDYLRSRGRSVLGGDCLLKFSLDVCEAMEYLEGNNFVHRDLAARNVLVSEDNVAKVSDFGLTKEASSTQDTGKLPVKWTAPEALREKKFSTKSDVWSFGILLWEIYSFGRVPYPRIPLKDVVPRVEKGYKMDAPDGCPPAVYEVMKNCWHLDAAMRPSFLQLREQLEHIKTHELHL

With `C=CC(=O)N1CCC(C(=O)NCC(=O)N2CCN(c3nc(-c4cnc(N)nc4C(F)F)nc(N4CCOCC4)n3)CC2)CC1` the remaining binding was 100% (CSK; KINOMEscan; 1 µM).
With `C[C@@H](c1ccc(-n2cnc3c(N)ncnc32)cc1)N1CCc2nn(C)c(Cc3ccccc3)c2C1=O` the remaining binding was 96% (CSK; KINOMEscan; 0.1 µM; baseline: DMSO control).
The remaining binding of `C=CC(=O)N1CCC(COCC(=O)N2CCN(c3nc(-c4cnc(N)nc4C(F)F)nc(N4CCOC[C@@H]4C)n3)CC2)CC1` is reported as 100% (CSK; KINOMEscan; 1 µM; baseline: DMSO control).
With `[2H]c1cc(C)c(NC(=O)c2cnc(Nc3cc(N4CCCCC4)nc(C)n3)s2)c(Cl)c1` the inhibition was 30 to 90% (CSK; 0.01 µM).
Under “z-scored log2 fold change”, `NCC(O)CCC(N)C(=O)O` (racemic) is recorded as 0.268 (binding, equilibrium dialysis LC-MS; 5 µM, thermostabilized A2AR-BRIL construct; baseline: no-protein control, direction not given).
`C1=C/COCc2cc(ccc2OCCN2CCCC2)Nc2nccc(n2)-c2cccc(c2)COC/1`: “percent of control” 88% (CSK; concentration not given).
Under “z-scored log2 fold change”, `C[C@@H]1O[C@H](OP(=O)(O)O)[C@@H](O)[C@H](O)[C@@H]1O` is recorded as 0.39 (binding, equilibrium dialysis LC-MS; 5 µM, thermostabilized A2AR-BRIL construct; baseline: no-protein control, direction not given).
`O=C(NC1CCC1)c1ccc2nc(-c3cccc(NS(=O)(=O)NCCN4CCCCC4)c3)cn2c1` gave a remaining activity of 100% (CSK; enzyme activity; 10 µM).
`CCCOc1ccc(OC)c(F)c1C(=O)c1ccc(C(=O)N[C@@H]2CNC[C@H]2NC(=O)c2ccc3[nH]ncc3c2)cc1` has a remaining activity of 106% (CSK; enzyme activity; 10 µM).
For `O=C1NC(=O)/C(=C/c2ccc(-c3ccc(F)cc3O)o2)S1`, the remaining activity was 100% (CSK; enzyme activity; 10 µM).
`COc1cc(-c2cncc3c2CN(C)Cc2cc(N4CCNCC4)ccc2-3)cc(OC)c1OC` has a remaining activity of 106% (CSK; kinase activity; 1 µM, human enzyme, together with: ATP 10 µM; baseline: DMSO control).
With `COc1ccc(F)cc1C(=O)NCc1ccc(-c2nn([C@@H](C)C(F)(F)F)c(N)c2C(N)=O)cc1` the inhibition was 30.1% (CSK; probe binding, competitive chemoproteomics; human PBMCs; 10 µM).
`COc1cc(F)ccc1-c1ncnc(Nc2cccc(C[S@](C)(=N)=O)c2)n1` has a remaining activity of 95% (CSK; kinase activity; 10 µM, together with: 10 µM ATP).
`CCN(CC)c1ccc(C2=NNC(=O)CC2C)cc1[N+](=O)[O-]` (centres unmarked) has a remaining activity of 69% (CSK; enzyme activity, inhibitor; 10 µM; baseline: vehicle).

Some of these lines once more:
With `C=CC(=O)N1CCC(C(=O)NCC(=O)N2CCN(c3nc(-c4cnc(N)nc4C(F)F)nc(N4CCOCC4)n3)CC2)CC1` the remaining binding was 100% (CSK; KINOMEscan; 1 µM).
With `COc1ccc(F)cc1C(=O)NCc1ccc(-c2nn([C@@H](C)C(F)(F)F)c(N)c2C(N)=O)cc1` the inhibition was 30.1% (CSK; probe binding, competitive chemoproteomics; human PBMCs; 10 µM).
